Assay results pooled from the literature.
A part holds a random share of what one study measured. Changes are numbered by the printed parent chain.

Block 1
Target: CCNE1, cyclin fold, Cln2 fusion (human)
Technique: yeast growth competition, sequencing
Sample: yeast
Notes: strong parent motif
Baseline: not given
Reading: higher = stronger binding
Starting sequence: E2F1 docking peptide (human); PPVKRRLDFETDH
`D12W` — result for “normalised enrichment score”: 6.54.
`R5L` — result for “normalised enrichment score”: 0.553.
`K4Y`: “normalised enrichment score” 2.29.
`T11Y` — result for “normalised enrichment score”: 6.31.
`T11M`: “normalised enrichment score” 6.44.
`D12Y` — result for “normalised enrichment score”: 6.63.
Under “normalised enrichment score”, `R5A` is recorded as 0.374.
Under “normalised enrichment score”, `D8C` is recorded as 6.2.
Under “normalised enrichment score”, `F9G` is recorded as -0.0763.
Under “normalised enrichment score”, `E10M` is recorded as 6.12.
For `T11W`, “normalised enrichment score” read 6.34.
`P2C` — result for “normalised enrichment score”: 6.42.
Under “normalised enrichment score”, `E10K` is recorded as 5.97.
`P2E`: “normalised enrichment score” 5.02.
Under “normalised enrichment score”, `L7S` is recorded as 0.239.
`D12Q` — result for “normalised enrichment score”: 6.62.
For `R6P`, “normalised enrichment score” read 0.224.

Block 2
Target: Fragile X messenger ribonucleoprotein 1, C-terminal low-complexity region (Fmr1, Mus musculus, UniProt P35922)
Technique: RNA Bind-n-Seq
Form: RNA
Sample: in vitro
Tested at: 200 nM
Notes: whole 134-nt RNA, ends assumed
Together with: 150 mM KCl
Baseline: input library
Reading: higher = stronger binding
Shared flanks, not repeated: GGGAGUUCUACAGUCCGACGAUC … UGGAAUUCUCGGGUGUCAAGG
With `AGUCCUGUGCUACACAUCGUAUGUACCGAAUCGGGGUUUUUGGUUUUUGGUUUUUGGGAAAGUAUUAUGUUACGCCGUUCGGAUCUGCAC` the log2 enrichment was -0.58.
`AGUCCUGUGCUACACAUCGUAUGUACCGAAUCGGGGAAAAGGGGAAAAGGAAAAGGGAAAGUAUUAUGUUACGCCGUUCGGAUCUGCACU` has a log2 enrichment of 0.0286.
`CCUGUGCUACACAUCGUAUGUACCGAAUCGGCCCCCCCGGCCCCCCCGGGCCCCCCCGGGAAAGUAUUAUGUUACGCCGUUCGGAUCUGC` has a log2 enrichment of 0.0847.
The log2 enrichment of `ACCAUGCAGGUGGGCAUCUUUGGGAAGUGGGGCAAGGGGGGGAUAGGGAAAGGGGUAACACUUUGGGAACAGGUGGUCCCAGGUCGUUUC` is reported as 0.688.
With `GUAGCUGCUCCAGUGGGCCCAGUGGGCCCCACUCCUACAGUUUUGCCCAUGGGAGCCCCUGUUCCCCGGCCUCGUGGUCCCCCACCGCCC` the log2 enrichment was -0.0497.
The log2 enrichment of `ACCAUGCAGGUGGGCAUCUUUGGGAAGUGGGGCAAGGGGGGGAUAGGGAGGGGGGUAACACUUUGGGAACAGGUGGUCCCAGAUCGUUUC` is reported as 0.757.
The log2 enrichment of `CCUCAAGUCCUGUGCUACACAUCGUAUGUACCGAAUCGGGCCGGGCCGGCCGGAAAGUAUUAUGUUACGCCGUUCGGAUCUGCACUUCCA` is reported as -0.0683.
The log2 enrichment of `UAACUUUAGAGGAGGAUCUGAUGGAUAUGGCAGUGGACGUGGAUUUGGGGAUGGCUAUAAUGGGUAUGGAGGAGGACCUGGAGGUGUCAA` is reported as 0.094.

Block 3
Target: Centromere-binding protein 1, full length, His-tagged (CBF1, Saccharomyces cerevisiae, UniProt P17106, residues 1-351)
UniProt P17106, sequence (whole entry, looked up): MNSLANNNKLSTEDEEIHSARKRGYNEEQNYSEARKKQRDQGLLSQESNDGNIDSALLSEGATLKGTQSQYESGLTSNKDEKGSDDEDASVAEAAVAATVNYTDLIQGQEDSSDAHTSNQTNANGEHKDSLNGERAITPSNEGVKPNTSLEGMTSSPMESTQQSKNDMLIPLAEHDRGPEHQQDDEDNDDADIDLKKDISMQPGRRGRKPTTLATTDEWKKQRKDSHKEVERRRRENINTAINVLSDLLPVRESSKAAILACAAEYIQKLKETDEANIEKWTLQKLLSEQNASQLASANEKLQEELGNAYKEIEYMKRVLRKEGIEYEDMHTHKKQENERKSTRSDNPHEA
Technique: competition protein-binding microarray
Form: double-stranded DNA, one strand shown
Sample: in vitro
Tested at: 2 µM
Notes: whole 60-bp probe, lowest competitor level
Together with: Pho4 competitor, 0.05 µM
Reading: higher = stronger binding
Shared flanks, not repeated: … GTCTTGATTCGCTTGACGCTGCTG
`CCCCTCCTGCCTACACGCATGCGGCTTTGATCCTTC` has a fluorescence intensity of 75.3 a.u.
`TGCGCAACAACTTTTCACGTGTCGTTATGTCTAGAA` has a fluorescence intensity of 862 a.u.
The fluorescence intensity of `AAAGCGGTAATTTGCGATGTGGGTGCAGATATCTAT` is reported as 75.9 a.u.
For `CTTTCCCGATCTTTTCACGTGGTTTTAGCACATTTG`, the fluorescence intensity was 1330 a.u.
The fluorescence intensity of `GAAATCAGAGAAGGTCCCGTGTCGGTAGGTACCTTA` is reported as 177 a.u.
The fluorescence intensity of `ACTAATTAAGGTTCTCACGTGGAACTTCCGTCAATG` is reported as 923 a.u.
`ATTAGTTCTGGTGCCATCGTGTCGGCTTTACCACAA` gave a fluorescence intensity of 60.6 a.u.
For `TTAAAACACTAATGAAACGTGTTGAAGGGGCCCGAC`, the fluorescence intensity was 95.5 a.u.
`CGTCCTAGTGATTGGCCTGTGGGTGCCATGAGGAAG` gave a fluorescence intensity of 86.4 a.u.
`CCGATGATATGATTGCACGTCCACTGAACAGGTTAA` gave a fluorescence intensity of 74 a.u.
`AACGAGCTCTGCTGGCACGCATTGAAGTTGGTTCAT` has a fluorescence intensity of 84.9 a.u.
With `CGGGGTTAAGTTTGTCACCCGACTTGCTTGCAGCAG` the fluorescence intensity was 65.4 a.u.
With `TAGTATCAAAGTAGGCATGTGGGTTGATACCAACGA` the fluorescence intensity was 81.8 a.u.
The fluorescence intensity of `CTTTCCCGATCTTGCGACGTGGGTGTAGCACATTTG` is reported as 75 a.u.

Block 4
Target: Histone acetyltransferase KAT6A, winged helix 1, GST fusion (KAT6A, Homo sapiens, UniProt Q92794, residues 1-85)
Technique: protein binding microarray
Form: double-stranded DNA, one strand shown
Sample: in vitro
Tested at: not given
Notes: 8-mer, flanks averaged, mean of 2 arrays, mostly near background
Baseline: not given
Reading: higher = stronger binding
Target sequence (chain): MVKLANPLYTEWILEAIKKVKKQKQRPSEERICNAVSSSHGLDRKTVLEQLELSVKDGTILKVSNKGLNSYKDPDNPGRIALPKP
`TCGGCGCA` has an E-score of 0.364.
`CCAGGGGC` gave an E-score of -0.016.
`ATGATCGC` gave an E-score of 0.111.
For `CTGTTCAA`, the E-score was -0.234.
The E-score of `CACGTTAA` is reported as -0.236.
`AAAAGAGC` gave an E-score of -0.00663.
`AAGTCTTC` gave an E-score of -0.233.
The E-score of `ACACACGA` is reported as -0.146.
`ATACCGTA` gave an E-score of 0.211.
`TCCATCGA` has an E-score of -0.167.
For `ACCATAAG`, the E-score was -0.13.
`CAGCGATC` has an E-score of 0.146.
The E-score of `CTGAAGTA` is reported as -0.137.
`CGGACAGA` has an E-score of 0.153.

Block 5
Target: Interferon regulatory factor 5, full length, phosphomimetic (IRF5, Homo sapiens, UniProt Q13568-2, residues 1-514, S451D/S453D/S456D/S462D)
Technique: protein-binding microarray
Form: double-stranded DNA, one strand shown
Sample: in vitro
Tested at: 940 nM top
Notes: 60-bp whole probe
Together with: salmon DNA 0.4 mg/ml
Baseline: random background probes
Reading: higher = stronger binding
Shared flanks, not repeated: GCCTAGCAC … GTCTTGATTCGCTTGACGCTGCTG
`GACGAACTGAGCCTCGAGACGTGCTAG`: “fitted relative affinity” -0.483 z-score.
`GACGGTATCCTGATCCTGACGTGCTAG` — result for “fitted relative affinity”: -0.349 z-score.
`GTTAGTGGGATGGCTGTGGTGTGCTAG`: “fitted relative affinity” -0.398 z-score.
For `TCAAAAATGATTGGTTGACTGTGCTAG`, “fitted relative affinity” read -0.465 z-score.
Under “fitted relative affinity”, `TCATATCTGGGTTCCCCACTGTGCTAG` is recorded as -0.104 z-score.
`AACTGCATCCCAGGAGCTGGGTGCTAG` — result for “fitted relative affinity”: -0.375 z-score.
Under “fitted relative affinity”, `TTAGGACTGGGATTGGGTTAGTGCTAG` is recorded as -0.148 z-score.
`ATAGGTATCCTACTGCTTTAGTGCTAG` — result for “fitted relative affinity”: -0.0205 z-score.
`GACGGACTGTTTTTCCTGACGTGCTAG`: “fitted relative affinity” 0.079 z-score.
`TCACATACGAGTTTCCATTTGTGCTAG`: “fitted relative affinity” 1.02 z-score.
`GACGGTATCTGTTTCGGGACGTGCTAG` — result for “fitted relative affinity”: 3.82 z-score.
`GACGATATCGACACTGGGGACGTGCTA` — result for “fitted relative affinity”: 0.127 z-score.
Under “fitted relative affinity”, `CAGGGTTTCACTTTAAATTAGTGCTAG` is recorded as 5.79 z-score.
`GACGGTATCGACTTTCGTGACGTGCTA` — result for “fitted relative affinity”: 4.13 z-score.

Block 6
Target: Sal-like protein 4, full length isoform A (SALL4, Homo sapiens, UniProt Q9UJQ4, residues 1-1053)
UniProt Q9UJQ4, sequence (whole entry, looked up): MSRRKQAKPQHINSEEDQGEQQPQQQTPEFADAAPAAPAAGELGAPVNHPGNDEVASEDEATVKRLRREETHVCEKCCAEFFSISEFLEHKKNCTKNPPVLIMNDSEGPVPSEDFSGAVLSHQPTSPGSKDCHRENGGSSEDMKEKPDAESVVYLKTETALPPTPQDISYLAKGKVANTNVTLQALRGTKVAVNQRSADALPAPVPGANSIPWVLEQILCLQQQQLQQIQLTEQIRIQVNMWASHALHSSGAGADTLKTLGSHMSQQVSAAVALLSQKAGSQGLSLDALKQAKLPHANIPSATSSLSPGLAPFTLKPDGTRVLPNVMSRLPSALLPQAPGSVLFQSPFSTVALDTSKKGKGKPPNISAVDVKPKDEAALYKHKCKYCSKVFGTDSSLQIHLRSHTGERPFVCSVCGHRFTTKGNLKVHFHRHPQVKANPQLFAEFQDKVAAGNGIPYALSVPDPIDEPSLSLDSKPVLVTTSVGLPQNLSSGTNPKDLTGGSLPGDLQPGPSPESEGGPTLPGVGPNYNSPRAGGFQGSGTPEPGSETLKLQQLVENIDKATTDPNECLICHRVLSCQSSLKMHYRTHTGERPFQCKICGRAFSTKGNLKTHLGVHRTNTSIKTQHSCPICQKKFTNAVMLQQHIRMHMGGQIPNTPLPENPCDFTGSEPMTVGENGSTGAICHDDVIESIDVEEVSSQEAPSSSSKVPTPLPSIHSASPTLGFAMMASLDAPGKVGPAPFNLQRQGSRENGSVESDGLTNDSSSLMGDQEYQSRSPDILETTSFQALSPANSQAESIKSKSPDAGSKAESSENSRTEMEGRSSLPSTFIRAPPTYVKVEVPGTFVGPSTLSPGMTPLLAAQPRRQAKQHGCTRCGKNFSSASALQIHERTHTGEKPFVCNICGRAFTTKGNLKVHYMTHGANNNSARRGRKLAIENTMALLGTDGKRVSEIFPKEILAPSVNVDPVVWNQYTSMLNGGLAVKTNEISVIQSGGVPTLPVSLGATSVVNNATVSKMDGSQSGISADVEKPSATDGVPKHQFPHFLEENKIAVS
Technique: universal PBM
Form: double-stranded DNA, one strand shown
Sample: in vitro
Tested at: 600 nM
Notes: 8-mer, flanks averaged, mean of replicates
Reading: higher = stronger binding
`AAAGAATT` has an E-score of 0.212.
`ATTGCTGA` gave an E-score of 0.166.
`CGTCTGCC` has an E-score of -0.226.
`CTTTGTAA` gave an E-score of 0.219.
With `CAACCTCA` the E-score was -0.059.
For `AAGTCAGA`, the E-score was -0.0512.
With `GACCGCTC` the E-score was -0.179.
For `AAGTAACT`, the E-score was 0.138.
With `GGCGGTGA` the E-score was -0.0657.
With `CTCACGCA` the E-score was -0.0166.
With `CACAGAAA` the E-score was 0.012.
For `GAAAGACC`, the E-score was -0.19.
`GGGTGTAA` has an E-score of -0.0201.
`GAATCAAC` has an E-score of 0.123.
The E-score of `ACGGGACC` is reported as -0.318.
`GAGAGCGC` gave an E-score of -0.33.
For `GCTCGAAC`, the E-score was -0.124.
The E-score of `ATGTTACA` is reported as 0.253.

Block 7
Target: ABI1, truncated, D143A, DHFR fusion (Arabidopsis thaliana)
Technique: DHFR PCA, deep sequencing
Sample: yeast
Notes: methotrexate growth selection, single substitutions
Together with: (+)-ABA 0.11 µM
Baseline: wild-type fitted maximum
Reading: higher = stronger binding
Starting sequence: PYL1, truncated, DHFR fusion (Arabidopsis thaliana); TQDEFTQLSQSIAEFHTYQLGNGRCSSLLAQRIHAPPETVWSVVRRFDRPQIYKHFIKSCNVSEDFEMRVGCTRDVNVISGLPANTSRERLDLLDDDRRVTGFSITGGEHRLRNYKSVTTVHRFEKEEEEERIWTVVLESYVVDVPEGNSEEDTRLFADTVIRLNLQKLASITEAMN
`I105N`: “relative binding score” -5.59%.
`L138C` — result for “relative binding score”: -1.03%.
`K126I` — result for “relative binding score”: 28.9%.
`A35K`: “relative binding score” -2.73%.
`D97N` — result for “relative binding score”: 38%.
`S42W`: “relative binding score” -7.4%.
Under “relative binding score”, `A30M` is recorded as 46.3%.
For `I162R`, “relative binding score” read 7.38%.
For `S171A`, “relative binding score” read 52.5%.
Under “relative binding score”, `I12T` is recorded as -5.43%.
For `Y115I`, “relative binding score” read 4.32%.
For `E152V`, “relative binding score” read 10.3%.
Under “relative binding score”, `V43G` is recorded as -5.33%.
`Q31P`: “relative binding score” 0.775%.
